Experimental data of several laboratories.
Lines come from different studies, so protocols differ.
UniProt O00444, sequence (whole entry, looked up): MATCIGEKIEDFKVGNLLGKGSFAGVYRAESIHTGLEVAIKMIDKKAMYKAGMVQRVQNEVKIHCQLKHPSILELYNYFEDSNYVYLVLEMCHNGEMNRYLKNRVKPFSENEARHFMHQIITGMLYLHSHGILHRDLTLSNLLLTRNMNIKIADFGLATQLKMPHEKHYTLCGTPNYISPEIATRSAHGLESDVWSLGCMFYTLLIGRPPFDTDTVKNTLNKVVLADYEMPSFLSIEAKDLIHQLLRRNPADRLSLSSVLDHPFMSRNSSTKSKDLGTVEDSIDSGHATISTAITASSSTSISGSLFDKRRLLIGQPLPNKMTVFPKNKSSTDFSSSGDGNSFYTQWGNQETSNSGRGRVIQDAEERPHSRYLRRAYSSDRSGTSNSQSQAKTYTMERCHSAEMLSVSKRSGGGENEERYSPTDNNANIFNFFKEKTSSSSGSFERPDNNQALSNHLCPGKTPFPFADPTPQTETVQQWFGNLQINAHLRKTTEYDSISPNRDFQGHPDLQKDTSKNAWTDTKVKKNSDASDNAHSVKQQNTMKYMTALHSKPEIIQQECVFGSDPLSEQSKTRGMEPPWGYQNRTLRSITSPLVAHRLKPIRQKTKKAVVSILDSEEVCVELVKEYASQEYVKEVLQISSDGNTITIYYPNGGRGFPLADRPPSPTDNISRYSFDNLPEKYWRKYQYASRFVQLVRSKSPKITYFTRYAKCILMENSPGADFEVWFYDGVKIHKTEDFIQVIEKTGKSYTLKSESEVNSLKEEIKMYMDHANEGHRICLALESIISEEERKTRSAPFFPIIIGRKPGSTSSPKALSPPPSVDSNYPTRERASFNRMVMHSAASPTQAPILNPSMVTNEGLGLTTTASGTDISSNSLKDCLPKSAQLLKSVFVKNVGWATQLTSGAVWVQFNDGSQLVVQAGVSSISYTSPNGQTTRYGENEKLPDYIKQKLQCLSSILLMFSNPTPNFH

SMILES | target or system | assay | system | setting | quantity | result
N#C[C@@]1(c2ccc3c(N)ncnn23)O[C@H](CO)[C@@H](O)[C@H]1O | – | – | dog, plasma | oral, 5 mg/kg | AUC(0-t) | 61.5 µM·h
Cc1nc(-c2cnc(NC(C)C)n(C)c2=O)ccc1Oc1ccnc(-c2cnn(C)c2)c1 | – | – | male beagle dog, plasma | intravenous, 1 mg/kg | AUC(0-t) | 7040 ng·h/mL
COc1cc2c3c(n(CCCN4CCOCC4)c(=O)c2cc1OC)-c1cc2c(cc1C3=O)OCO2 | – | – | female beagle dog, plasma | intravenous, 50 mg/m², infusion | AUC(0-inf) | 1110 ng·h/mL
COc1ccc(C[C@@H](C)[C@@H](C)Cc2ccc(OC)c(OC)c2)cc1OC | – | – | male beagle dog, plasma | oral, 100 mg/kg/day, multiple doses, once daily | AUC(0-t) | 10300 ng·h/mL
O=C1CC[C@H](N2Cc3c(ccc4c3OCC43CCN(C[C@@H]4CCC5(CCN(c6ccc([C@@H]7c8ccc(O)cc8CC[C@@H]7c7ccccc7)cc6)CC5)OC4)CC3)C2=O)C(=O)N1 | – | – | beagle dog, plasma | oral, 3 mg/kg | AUC(0-inf) | 15100 ng·h/mL
CC1(C)CCC(c2ccc(Cl)cc2)=C(CN2CCN(c3ccc(C(=O)NS(=O)(=O)c4ccc(N[C@H](CCN5CCOCC5)CSc5ccccc5)c(S(=O)(=O)C(F)(F)F)c4)cc3)CC2)C1 | – | – | male beagle dog, plasma | oral, 25 mg/kg, single dose | AUC(0-t) | 295000 ng·h/mL
Cc1c(C(=O)O)ccc2c3n(nc12)[C@@H]1[C@H](C3)N(CC2CC2)[C@@]2(C(=O)Nc3cc(Cl)ccc32)[C@H]1c1cccc(Cl)c1F | – | – | male dog, plasma | oral, 2 mg/kg | AUC(0-inf) | 15.8 µM·h
CC1(C)CCC(CN2CCN(c3ccc(C(=O)NS(=O)(=O)c4ccc(NCC5CCOCC5)c([N+](=O)[O-])c4)c(Oc4cnc5[nH]ccc5c4)c3)CC2)=C(c2ccc(Cl)cc2)C1 | – | – | male beagle dog, plasma | oral, 25 mg/kg, single dose | AUC(0-t) | 145000 ng·h/mL
CNc1ncc2c(/C=C/C(=O)N3CCC(OC)CC3)nn(Cc3cccc(C(F)(F)F)c3)c2n1 | PLK4 (Homo sapiens, UniProt O00444) | enzyme activity, inhibitor, radiometric | – | 1 µM | remaining activity | 82%

For quick reference, copied from above:
SMILES | target or system | assay | system | setting | quantity | result
CC1(C)CCC(CN2CCN(c3ccc(C(=O)NS(=O)(=O)c4ccc(NCC5CCOCC5)c([N+](=O)[O-])c4)c(Oc4cnc5[nH]ccc5c4)c3)CC2)=C(c2ccc(Cl)cc2)C1 | – | – | male beagle dog, plasma | oral, 25 mg/kg, single dose | AUC(0-t) | 145000 ng·h/mL
